Assay results pooled from the literature.
Protocols differ between the studies behind these lines. Numbers after ± are the reported error.
Technique: steady-state kinetics
B1: CstB (Staphylococcus aureus, UniProt G5ELA4); chain MFFKQFYDNHLSQASYLVGCQRTGEAIIIDPVRDLSKYIEVADSEGLTITQATETHIHADFASGIRDVAKRLNANIYVSGEGEDALGYKNMPSKTQFVKHGDIIQVGNVKLEVLHTPGHTPESISFLLTDLGGGSSVPMGLFSGDFIFVGDIGRPDLLEKSVQIKGSTEISAKQMYESVQNIKNLPDYVQIWPGHGAGSPCGKALGAIPISTIGYEKINNWAFNEIDETKFIESLTSNQPAPPHHFAQMKQVNQFGMNLYQSYDVYPSLDNKRVAFDLRSKEAFHGGHTKGTINIPYNKNFINQIGWYLDFEKDIDLIGDKSTVEKAKHTLQLIGFDKVAGYRLPKSGISTQSVHSADMTGKEEHVLDVRNDEEWNNGHLDQAVNIPHGKLLNENIPFNKEDKIYVHCQSGVRSSIAVGILESKGFENVVNIREGYQDFPESLK
B2: PLBD1 self-cleaved, cathepsin L-processed (Homo sapiens, UniProt Q6P4A8); chain 1 GVYYATAYWMPAEKTVQVKNVMDKNGDAYGFYNNSVKTTGWGILEIRAGYGSQTLSNEIIMFVAGFLEGYLTAPHMNDHYTNLYPQLITKPSIMDKVQDFMEKQDKWTRKNIKEYKTDSFWRHTGYVMAQIDGLYVGAKKRAILEGTKPMTLFQIQFLNSVGDLLDLIPS; chain 2 CSALIKVLPGFENILFAHSSWYTYAAMLRIYKHWDFNVIDKDTSSSRLSFSSYPGFLESLDDFYILSSGLILLQTTNSVFNKTLLKQVIPETLLSWQRVRVANMMADSGKRWADIFSKYNSGTYNNQYMVLDLKKVKLNHSLDKGTLYIVEQIPTYVEYSEQTDVLRKGYWPSYNVPFHEKIYNWSGYPLLVQKLGLDYSYDLAPRAKIFRRDQGKVTDTASMKYIMRYNNYKKDPYSRGDPCNTICCREDLNSPNPSPGGCYDTKVADIYLASQYTSYAISGPTVQGGLPVFRWDRFNKTLHQGMPEVYNFDFITMKPILKLDIK
B3: carbamoyl phosphate synthetase large subunit L720E (Escherichia coli, UniProt P00968); chain PKRTDIKSILILGAGPIVIGQACEFDYSGAQACKALREEGYRVILVNSNPATIMTDPEMADATYIEPIHWEVVRKIIEKERPDAVLPTMGGQTALNCALELERQGVLEEFGVTMIGATADAIDKAEDRRRFDVAMKKIGLETARSGIAHTMEEALAVAADVGFPCIIRPSFTMGGSGGGIAYNREEFEEICARGLDLSPTKELLIDESLIGWKEYEMEVVRDKNDNCIIVCSIENFDAMGIHTGDSITVAPAQTLTDKEYQIMRNASMAVLREIGVETGGSNVQFAVNPKNGRLIVIEMNPRVSRSSALASKATGFPIAKVAAKLAVGYTLDELMNDITGGRTPASFEPSIDYVVTKIPRFNFEKFAGANDRLTTQMKSVGEVMAIGRTQQESLQKALRGLEVGATGFDPKVSLDDPEALTKIRRELKDAGADRIWYIADAFRAGLSVDGVFNLTNIDRWFLVQIEELVRLEEKVAEVGITGLNADFLRQLKRKGFADARLAKLAGVREAEIRKLRDQYDLHPVYKRVDTCAAEFATDTAYMYSTYEEECEANPSTDREKIMVLGGGPNRIGQGIEFDYCCVHASLALREDGYETIMVNCNPETVSTDYDTSDRLYFEPVTLEDVLEIVRIEKPKGVIVQYGGQTPLKLARALEAAGVPVIGTSPDAIDRAEDRERFQHAVERLKLKQPANATVTAIEMAVEKAKEIGYPLVVRPSYVEGGRAMEIVYDEADLRRYFQTAVSVSNDAPVLLDHFLDDAVEVDVDAICDGEMVLIGGIMEHIEQAGVHSGDSACSLPAYTLSQEIQDVMRQQVQKLAFELQVRGLMNVQFAVKNNEVYLIEVNPRAARTVPFVSKATGVPLAKVAARVMAGKSLAEQGVTKEVIPPYYSVKEVVLPFNKFPGVDPLLGPEMRSTGEVMGVGRTFAEAFAKAQLGSNSTMKKHGRALLSVREGDKERVVDLAAKLLKQGFELDATHGTAIVLGEAGINPRLVNKVHEGRPHIQDRIKNGEYTYIINTTSGRRAIEDSRVIRRSALQYKVHYDTTLNGGFATAMALNADATEKVISVQEMHAQIK
B4: YdjH (Escherichia coli, UniProt P77493); chain MDNLDVICIGAAIVDIPLQPVSKNIFDVDSYPLERIAMTTGGDAINEATIISRLGHRTALMSRIGKDAAGQFILDHCRKENIDIQSLKQDVSIDTSINVGLVTEDGERTFVTNRNGSLWKLNIDDVDFARFSQAKLLSLASIFNSPLLDGKALTEIFTQAKARQMIICADMIKPRLNETLDDICEALSYVDYLFPNFAEAKLLTGKETLDEIADCFLACGVKTVVIKTGKDGCFIKRGDMTMKVPAVAGITAIDTIGAGDNFASGFIAALLEGKNLRECARFANATAAISVLSVGATTGVKNRKLVEQLLEEYEG
B5: Mj-MAT W387F/Y170W (Methanocaldococcus jannaschii, UniProt Q58605); chain MRNIIVKKLDVEPIEERPTEIVERKGLGHPDSICDGIAESVSRALCKMYMEKFGTILHHNTDQVELVGGHAYPKFGGGVMVSPIYILLSGRATMEILDKEKNEVIKLPVGTTAVKAAKEYLKKVLRNVDVDKDVIIDCRIGQGSMDLVDVFERQKNEVPLANDTSFGVGWAPLSTTERLVLETERFLNSDELKNEIPAVGEDIKVMGLREGKKITLTIAMAVVDRYVKNIEEYKEVIEKVRKKVEDLAKKIADGYEVEIHINTADDYERESVYLTVTGTSAEMGDDGSVGRGNRVNGLITPFRPMSMEAASGKNPVNHVGKIYNILANLIANDIAKLEGVKECYVRILSQIGKPINEPKALDIEIITEDSYDIKDIEPKAKEIANKFLDNIMEVQKMIVEGKVTTF
B6: BshA Y95F (Bacillus subtilis, UniProt P42982); chain MRKLKIGITCYPSVGGSGIIATELGKQLAEKGHEIHFITSSIPFRLNTYHPNIHFHEVEVNQYAVFKYPPYDLTLASKIAEVAERENLDIIHAHFALPHAVCAYLAKQMLKRNIGIVTTLHGTDITVLGYDPSLKDLIRFAIESSDRVTAVSSALAAETYDLIKPEKKIETIYNFIDERVYLKKNTAAIKEKHGILPDEKVVIHVSNFRKVKRVQDVIRVFRNIAGKTKAKLLLVGDGPEKSTACELIRKYGLEDQVLMLGNQDRVEDLYSISDLKLLLSEKESFGLVLLEAMACGVPCIGTNIGGIPEVIKNNVSGFLVDVGDVTAATARAMSILEDEQLSNRFTKAAIEMLENEFSSKKIVSQYEQIYADLAEPE
B7: enzyme E323G (UniProt H9KVH3); chain ADASQIVSEMGAGWNLGNQLEAAVNGTPNETAWGNPTVTPELIKKVKAAGFKSIRIPVSYLNNIGSAPNYTINAAWLNRIQQVVDYAYNEGLYVIINIHGDGYNSVQGGWLLVNGGNQTAIKEKYKKVWQQIATKFSNYNDRLIFESMNEVFDGNYGNPNSAYYTNLNAYNQIFVDTVRQTGGNNNARWLLVPGWNTNIDYTVGNYGFTLPTDNYRSSAIPSSQKRIMISAHYYSPWDFAGEENGNITQWGATSTNPAKKSTWGQEDYLESQFKSMYDKFVTQGYPVVIGGFGSIDKTSYDSSNNVYRAAYAKAVTAKAKKYKMVPVYWDNGHNGQHGFALFNRSNNTVTQQNIINAIMQGMQ
B8: BaiA2 (Clostridium scindens, UniProt P19337); chain MNLVQDKVTIITGGTRGIGFAAAKIFIDNGAKVSIFGETQEEVDTALAQLKELYPEEEVLGFAPDLTSRDAVMAAVGQVAQKYGRLDVMINNAGITSNNVFSRVSEEEFKHIMDINVTGVFNGAWCAYQCMKDAKKGVIINTASVTGIFGSLSGVGYPASKASVIGLTHGLGREIIRKNIRVVGVAPGVVNTDMTNGNPPEIMEGYLKALPMKRMLEPEEIANVYLFLASDLASGITATTVSVDGAYRP
B9: enzyme (Thermus thermophilus, UniProt Q72J81); chain MEVKRIGVVGAGQMGSGIAQVAASAGYEVVLVDVAESFLERGLAAIRRSLGKFLEKGKITQEAHDEALGRIRTSLSLEDLKDADLIVEAIVEDEGEKRRLFERLGALAKPEAILASNTSSIPITALARYSGRPERFIGMHFFNPVPLMQLVEVIRGELTSEATRDVVVEVARRMGKTPLEVQDYPGFISNRLLMPMINEAIEALREGVATKEAIDGIMRLGMNHPMGPLELADFIGLDTCLAIMEVLHRGFGDDKYRPSPLLRRMVQAGLLGRKAGRGFYTYDEKGNKVG
B10: enzyme D185A (Thermococcus kodakarensis, UniProt Q5JID5); chain MLYVEILGNLPEMARDEVKAMLELGGGEIIGQDYLFLKVDAGEKAFPFLDRLGLAHEYGLLLVEADSVEELLQKAGEVEWPIKGAFKVDTETMANCRHDVLDLPRKLGAVIHAQGFRVNLSKPDTVVRVYCGERLYAGIRLRYFDPKDFEKRKAHHRPFFRPISLHPRVSRALVNLTKATREILAPFMGAGGILIEAGLLGLRVYGVDIRPEMVEGAETNLKHYGVRDYTLKLGDATRLEDLFPDKKFEAVATDPPYGTAATLAGRKRDELYRKALRSIYNVLEDGGRLAIAFPTDFNGKAEAEAVGFRTLGRYYQRVHKSLERYFYVFEK
B11: enzyme (Pseudomonas putida, UniProt Q88P31); chain MAAISVEPCTFALFGALGDLALRKLFPALYQLDRANLLHPDTRLLALAREVGSAQEHLDSIEAHLRRHVPEADIEPAALGRFLARLNYQHLDFLQPEGYQALAEQLPGELPLIAYFATAAAVYGAICENLDKVGLAARTRVVLEKPIGHDLESSRRVNDAVARFFPESRVYRIDHYLGKETVQNLIALRFANSLFETQWNQNSISHVEITVAEKVGIEGRWGYFDKAGQLRDMIQNHLLQLLCLIAMDPPSELSADAIRDEKVKVLKALAPITGDGLSTSVVRGQYIAGYSEGKPVPGYLEEDNANAQSDTETFVALRADIRNWRWSGVPFYLRTGKRMPQKLSQIVIHFKETPHYIFAPEQRLQIGNKLIIRLQPDEGISLRVMTKEQGLDKGMQLRSGPLQLNFSDAWRSARIPDAYERLLLEVMRGNQNLFVRKDEIEYAWKWCDQLIAGWRNAGDAPKPYAAGSWGPMSSIALITRDGRAWYGDI

`B1 (CstB)` has a kcat of 19.3 ± 2.2 s⁻¹ (CC(C)(COP(=O)(O)OP(=O)(O)OC[C@H]1O[C@@H](n2cnc3c(N)ncnc32)[C@H](O)[C@@H]1OP(=O)(O)O)[C@@H](O)C(=O)NCCC(=O)NCCSS; pH 6, 25 °C, NaBr 100 mM, air-saturated, with: Fe(II), O2).
`B2` gave a kcat of 0.73 s⁻¹ (CC[C@H](C)[C@H](N)C(=O)Nc1ccc2c(C)cc(=O)oc2c1; pH 4.5, 37 °C, with: cathepsin L).
`B3` has a kcat of 2 ± 0.15 s⁻¹ (Nc1ncnc2c1ncn2[C@@H]1O[C@H](COP(=O)(O)OP(=O)(O)OP(=O)(O)O)[C@@H](O)[C@H]1O; pH 7.6, KCl 100 mM, with: glutamine 10 mM, ornithine 10 mM).
`butyrylcholinesterase (Sus scrofa, UniProt A0A4X1VEU5)` gave a kcat of 1030 ± 50 s⁻¹ (CC(=O)SCC[N+](C)(C)C; pH 8, 22 °C).
With `B4 (YdjH)` the kcat was 0.35 ± 0.01 s⁻¹ (O=C(CO)[C@@H](O)[C@H](O)[C@H](O)[C@@H](O)CO; pH 7.4, 30 °C, KCl 100 mM, with: ATP 2.0 mM, MgCl2 5.0 mM).
The kcat of `B5 (Mj-MAT W387F/Y170W)` is reported as 2.39 ± 0.03 s⁻¹ (CSCC[C@H](N)C(=O)O; 55 °C, with: ATP 2.5 mM, methionine 0.05-1 mM).
`B6 (BshA Y95F)` has a kcat of 0.92 ± 0.03 s⁻¹ (O=C(O)C[C@H](O)C(=O)O; pH 7.5, 21 °C, with: UDP-GlcNAc 0–4 mM).
`B7 (enzyme E323G)` has a kcat of 1.22 ± 0.233 s⁻¹ (OC[C@H]1O[C@H](F)[C@H](O)[C@@H](O)[C@@H]1O[C@@H]1O[C@H](CO[C@H]2OC[C@@H](O)[C@H](O)[C@H]2O)[C@@H](O[C@@H]2O[C@H](CO[C@H]3OC[C@@H](O)[C@H](O)[C@H]3O)[C@@H](O[C@@H]3O[C@H](CO[C@H]4OC[C@@H](O)[C@H](O)[C@H]4O)[C@@H](O)[C@H](O)[C@H]3O)[C@H](O)[C@H]2O)[C@H](O)[C@H]1O; pH 7.5, 30 °C, apparent).
`B8 (BaiA2)` gave a kcat of 0.167 s⁻¹ (C[C@H](CCC(=O)SCCNC(=O)CCNC(=O)[C@H](O)C(C)(C)COP(=O)(O)OP(=O)(O)OC[C@H]1O[C@@H](n2cnc3c(N)ncnc32)[C@H](O)[C@@H]1OP(=O)(O)O)[C@H]1CC[C@H]2[C@@H]3[C@H](O)C[C@@H]4C[C@H](O)CC[C@]4(C)[C@H]3C[C@H](O)[C@]12C; pH 8.7, 37 °C, with: NAD+).
`B9 (enzyme)` gave a kcat of 12.9 s⁻¹ (NC(=O)c1ccc[n+]([C@@H]2O[C@H](COP(=O)(O)OP(=O)(O)OC[C@H]3O[C@@H](n4cnc5c(N)ncnc54)[C@H](O)[C@@H]3O)[C@@H](O)[C@H]2O)c1; pH 7, 65 °C, cofactor varied).
`B10 (enzyme D185A)` has a kcat of 0.0025 ± 0.0005 s⁻¹ (C[S+](CC[C@H](N)C(=O)O)C[C@H]1O[C@@H](n2cnc3c(N)ncnc32)[C@H](O)[C@@H]1O; pH 7.5, 50 °C, apparent).
For `B11 (enzyme)`, the kcat was 277 ± 2 s⁻¹ (NC(=O)c1ccc[n+]([C@@H]2O[C@H](COP(=O)(O)OP(=O)(O)OC[C@H]3O[C@@H](n4cnc5c(N)ncnc54)[C@H](O)[C@@H]3O)[C@@H](O)[C@H]2O)c1; pH 8, 30 °C).

Excerpt of the above:
`B7 (enzyme E323G)` has a kcat of 1.22 ± 0.233 s⁻¹ (OC[C@H]1O[C@H](F)[C@H](O)[C@@H](O)[C@@H]1O[C@@H]1O[C@H](CO[C@H]2OC[C@@H](O)[C@H](O)[C@H]2O)[C@@H](O[C@@H]2O[C@H](CO[C@H]3OC[C@@H](O)[C@H](O)[C@H]3O)[C@@H](O[C@@H]3O[C@H](CO[C@H]4OC[C@@H](O)[C@H](O)[C@H]4O)[C@@H](O)[C@H](O)[C@H]3O)[C@H](O)[C@H]2O)[C@H](O)[C@H]1O; pH 7.5, 30 °C, apparent).
